Measurements of several laboratories.
Protocols differ between the studies behind these lines. ± marks the error that the study gave.
Cell line: Caco-2

SMILES	method	tested at	time	pH	setting	reference	efflux ratio
O=C(Nc1c2c(cc3c1CCC3)CCC2)NS(=O)(=O)/C=C/c1nccs1	–	2 µM	120 min	pH 7.4	–	B-A over A-B	1.15
Cc1ccc(Nc2c(-c3ccc(F)cc3)nc3n2CC(=O)NC3)cc1	–	–	–	–	–	A-B over B-A	1.04
COc1ccc(-c2coc3cc(O)cc(O)c3c2=O)cc1	bidirectional transport	100 µg/mL	2 h	–	–	Papp BL-AP over Papp AP-BL	1.04 ± 0.1
CC(C)C[C@@H]1NC(=O)CN(C)C(=O)[C@H](Cc2ccccc2)NCC2=CC=C(CNC1=O)O2	–	–	–	–	–	–	5
C[C@]12CC[C@@H]3c4ccc(OS(=O)(=O)O)cc4CC[C@H]3[C@@H]1CCC2=O	–	–	–	–	no inhibitor, BCRP (novobiocin) set	–	34.2
CC(=O)CC(c1ccccc1)c1c(O)c2ccccc2oc1=O (centres unmarked)	–	10 µM	2 h	–	–	B-A over A-B	0.542
O=C1c2cccc(O)c2C(=O)c2c(O)cccc21	–	100 µg/mL	2 h	–	–	B-A over A-B	> 2
C#Cc1c(F)ccc2cc(O)cc(-c3ncc4c(N5CC6CCC(C5)N6)nc(OC[C@@]56CCCN5C[C@H](F)C6)nc4c3F)c12	–	–	–	–	no inhibitor, BCRP (novobiocin) set	–	> 16.3
CC1(C)c2nc(-c3ccc(F)cc3)c(Nc3ccc(F)c(F)c3)n2CCN1C(=O)CN	–	–	–	–	–	A-B over B-A	0.47
Cc1cc(C)c(CNC(=O)c2cc(Cl)c3c(c2C)O[C@@](C)([C@H]2CC[C@H](N(C)C)CC2)O3)c(=O)[nH]1	–	30 µM	–	–	–	–	33.7
O=C(Nc1ccc(CN2CCOCC2)c(C(F)(F)F)c1)c1ccc(C#Cc2cccc3cnccc23)cn1	–	–	–	–	–	Papp B-A over Papp A-B	0.627

Excerpt of the above:
SMILES	method	tested at	time	pH	setting	reference	efflux ratio
CC1(C)c2nc(-c3ccc(F)cc3)c(Nc3ccc(F)c(F)c3)n2CCN1C(=O)CN	–	–	–	–	–	A-B over B-A	0.47
